Assay results gathered from unrelated publications.
Compare with care: the assays were run in different laboratories. ± gives the spread as reported.
Crebbp: Crebbp 340-439 (Mus musculus, UniProt P45481)
UniProt P45481, sequence (whole entry, looked up): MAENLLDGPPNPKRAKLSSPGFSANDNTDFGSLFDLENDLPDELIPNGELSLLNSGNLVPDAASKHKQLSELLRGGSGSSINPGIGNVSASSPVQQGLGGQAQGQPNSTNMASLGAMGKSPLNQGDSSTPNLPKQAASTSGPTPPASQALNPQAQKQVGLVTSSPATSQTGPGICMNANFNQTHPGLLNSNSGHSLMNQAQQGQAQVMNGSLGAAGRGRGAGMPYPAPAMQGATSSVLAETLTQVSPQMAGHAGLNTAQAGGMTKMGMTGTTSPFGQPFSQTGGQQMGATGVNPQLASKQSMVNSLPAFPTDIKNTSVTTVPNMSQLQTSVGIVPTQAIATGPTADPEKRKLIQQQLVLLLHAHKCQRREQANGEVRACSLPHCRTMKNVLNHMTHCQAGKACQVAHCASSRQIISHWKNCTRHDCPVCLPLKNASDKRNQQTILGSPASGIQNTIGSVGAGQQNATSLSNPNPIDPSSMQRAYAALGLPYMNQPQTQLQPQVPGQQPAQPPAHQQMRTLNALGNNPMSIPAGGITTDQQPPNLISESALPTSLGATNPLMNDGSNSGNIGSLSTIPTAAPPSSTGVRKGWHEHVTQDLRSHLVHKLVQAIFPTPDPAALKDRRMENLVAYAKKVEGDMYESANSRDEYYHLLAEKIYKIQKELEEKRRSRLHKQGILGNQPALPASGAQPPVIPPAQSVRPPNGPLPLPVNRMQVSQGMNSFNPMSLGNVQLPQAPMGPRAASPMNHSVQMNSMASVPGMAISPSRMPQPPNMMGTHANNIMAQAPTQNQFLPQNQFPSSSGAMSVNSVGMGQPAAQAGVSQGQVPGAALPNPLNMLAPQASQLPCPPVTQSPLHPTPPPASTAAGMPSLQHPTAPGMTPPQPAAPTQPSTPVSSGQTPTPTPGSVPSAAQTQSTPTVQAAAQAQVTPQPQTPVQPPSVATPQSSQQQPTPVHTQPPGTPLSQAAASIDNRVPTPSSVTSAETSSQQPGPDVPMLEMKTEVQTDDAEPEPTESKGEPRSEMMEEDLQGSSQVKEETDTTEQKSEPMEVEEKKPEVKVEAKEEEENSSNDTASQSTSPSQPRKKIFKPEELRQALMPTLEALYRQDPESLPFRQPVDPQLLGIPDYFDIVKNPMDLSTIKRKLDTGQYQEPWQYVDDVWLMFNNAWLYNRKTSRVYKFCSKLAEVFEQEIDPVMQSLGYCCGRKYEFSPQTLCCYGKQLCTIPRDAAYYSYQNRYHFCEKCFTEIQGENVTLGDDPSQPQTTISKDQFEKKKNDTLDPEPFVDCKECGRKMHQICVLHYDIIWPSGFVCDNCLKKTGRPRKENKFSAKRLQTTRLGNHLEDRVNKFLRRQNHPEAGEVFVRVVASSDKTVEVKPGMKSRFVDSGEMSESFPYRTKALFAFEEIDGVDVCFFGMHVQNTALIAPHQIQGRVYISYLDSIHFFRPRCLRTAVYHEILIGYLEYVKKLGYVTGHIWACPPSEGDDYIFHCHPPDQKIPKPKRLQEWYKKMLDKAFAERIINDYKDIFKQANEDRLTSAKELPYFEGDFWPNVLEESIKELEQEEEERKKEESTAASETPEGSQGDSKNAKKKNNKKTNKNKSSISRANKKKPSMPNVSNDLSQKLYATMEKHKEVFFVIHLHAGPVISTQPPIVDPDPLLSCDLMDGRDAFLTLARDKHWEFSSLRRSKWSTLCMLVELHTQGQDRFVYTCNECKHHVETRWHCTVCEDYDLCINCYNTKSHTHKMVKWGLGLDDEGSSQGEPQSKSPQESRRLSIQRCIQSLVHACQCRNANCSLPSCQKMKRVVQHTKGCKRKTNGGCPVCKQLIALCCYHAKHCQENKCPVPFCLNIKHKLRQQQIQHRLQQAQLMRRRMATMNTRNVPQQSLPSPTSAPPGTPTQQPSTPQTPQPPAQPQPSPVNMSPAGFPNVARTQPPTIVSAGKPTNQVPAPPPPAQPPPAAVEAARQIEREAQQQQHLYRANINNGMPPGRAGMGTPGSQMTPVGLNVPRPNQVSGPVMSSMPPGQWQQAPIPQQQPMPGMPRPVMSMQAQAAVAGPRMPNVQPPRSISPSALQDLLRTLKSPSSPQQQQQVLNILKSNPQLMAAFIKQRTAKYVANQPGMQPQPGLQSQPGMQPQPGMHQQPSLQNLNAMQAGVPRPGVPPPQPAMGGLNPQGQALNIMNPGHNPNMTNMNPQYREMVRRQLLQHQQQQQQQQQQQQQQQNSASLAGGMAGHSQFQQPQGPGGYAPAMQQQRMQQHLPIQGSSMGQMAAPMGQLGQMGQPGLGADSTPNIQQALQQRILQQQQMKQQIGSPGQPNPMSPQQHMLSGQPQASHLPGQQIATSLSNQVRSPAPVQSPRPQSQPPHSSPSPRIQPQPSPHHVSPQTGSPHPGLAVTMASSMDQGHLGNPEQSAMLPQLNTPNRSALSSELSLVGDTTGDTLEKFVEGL
B1: acpP (Escherichia coli, UniProt P0A6A8); 4-DMN-phosphopantetheine; sequence looked up; chain MSTIEERVKKIIGEQLGVKQEEVTNNASFVEDLGADSLDTVELVMALEEEFDTEIPDEEAEKITTVQAAIDYINGHQA
B2: clpC N domain 1-150 (Bacillus subtilis, UniProt P37571); chain MMFGRFTERAQKVLALAQEEALRLGHNNIGTEHILLGLVREGEGIAAKALQALGLGSEKIQKEVESLIGRGQEMSQTIHYTPRAKKVIELSMDEARKLGHSYVGTEHILLGLIREGEGVAARVLNNLGVSLNKARQQVLQLLGSNETGSS
B3: USP7 207-560 (Homo sapiens, UniProt Q93009); sequence looked up; chain SKKHTGYVGLKNQGATCYMNSLLQTLFFTNQLRKAVYMMPTEGDDSSKSVPLALQRVFYELQHSDKPVGTKKLTKSFGWETLDSFMQHDVQELCRVLLDNVENKMKGTCVEGTIPKLFRGKMVSYIQCKEVDYRSDRREDYYDIQLSIKGKKNIFESFVDYVAVEQLDGDNKYDAGEHGLQEAEKGVKFLTLPPVLHLQLMRFMYDPQTDQNIKINDRFEFPEQLPLDEFLQKTDPKDPANYILHAVLVHSGDNHGGHYVVYLNPKGDGKWCKFDDDVVSRCTKEEAIEHNYGGHDDDLSVRHCTNAYMLVYIRESKLSEVLQAVTDHDIPQQLVERLQEEKRIEAQKRKERQE
B4: ADRM1 265-388 (Homo sapiens, UniProt Q16186); chain SDLQSILATMNVPAGPAGGQQVDLASVLTPEIMAPILANADVQERLLPYLPSGESLPQTADEIQNTLTSPQFQQALGMFSAALASGQLGPLMCQFGLPAEAVEAANKGDVEAFAKAMQNNAKPE
B5: spdl-1 C-terminal 362-479 (Caenorhabditis elegans, UniProt Q17695); sequence looked up; chain PVVNKDFEHPLLAAPLKTLNNGRPSFFIKPKNVEPMPQLGHSLSSIAVTPQKPAAKFTTRSSIKDDTSEWAERRMKAQAEKKLATPTPRYNYIKLSEPVPKFKPAVLQMPSTSETKEN
B6: IL18 37-193 S43C/C74S/S86C/C104S/C112S/C163S (Homo sapiens, UniProt Q14116); chain YFGKLECKLSVIRNLNDQVLFIDQGNRPLFEDMTDSDSRDNAPRTIFIICMYKDSQPRGMAVTISVKSEKISTLSSENKIISFKEMNPPDNIKDTKSDIIFFQRSVPGHDNKMQFESSSYEGYFLASEKERDLFKLILKKEDELGDRSIMFTVQNED
B7: human transketolase; sequence looked up; chain MESYHKPDQQKLQALKDTANRLRISSIQATTAAGSGHPTSCCSAAEIMAVLFFHTMRYKSQDPRNPHNDRFVLSKGHAAPILYAVWAEAGFLAEAELLNLRKISSDLDGHPVPKQAFTDVATGSLGQGLGAACGMAYTGKYFDKASYRVYCLLGDGELSEGSVWEAMAFASIYKLDNLVAILDINRLGQSDPAPLQHQMDIYQKRCEAFGWHAIIVDGHSVEELCKAFGQAKHQPTAIIAKTFKGRGITGVEDKESWHGKPLPKNMAEQIIQEIYSQIQSKKKILATPPQEDAPSVDIANIRMPSLPSYKVGDKIATRKAYGQALAKLGHASDRIIALDGDTKNSTFSEIFKKEHPDRFIECYIAEQNMVSIAVGCATRNRTVPFCSTFAAFFTRAFDQIRMAAISESNINLCGSHCGVSIGEDGPSQMALEDLAMFRSVPTSTVFYPSDGVATEKAVELAANTKGICFIRTSRPENAIIYNNNEDFQVGQAKVVLKSKDDQVTVIGAGVTLHEALAAAELLKKEKINIRVLDPFTIKPLDRKLILDSARATKGRILTVEDHYYEGGIGEAVSSAVVGEPGITVTHLAVNRVPRSGKPAELLKMFGIDRDAIAQAVRGLITKA
B8: Notch1 221-526 (Mus musculus, UniProt Q01705); sequence looked up; chain PCSPSPCQNGGTCRPTGDTTHECACLPGFAGQNCEENVDDCPGNNCKNGGACVDGVNTYNCRCPPEWTGQYCTEDVDECQLMPNACQNGGTCHNTHGGYNCVCVNGWTGEDCSENIDDCASAACFQGATCHDRVASFYCECPHGRTGLLCHLNDACISNPCNEGSNCDTNPVNGKAICTCPSGYTGPACSQDVDECALGANPCEHAGKCLNTLGSFECQCLQGYTGPRCEIDVNECISNPCQNDATCLDQIGEFQCICMPGYEGVYCEINTDECASSPCLHNGHCMDKINEFQCQCPKGFNGHLCQ
UniProt A0A0D1DWZ5, sequence (whole entry, looked up): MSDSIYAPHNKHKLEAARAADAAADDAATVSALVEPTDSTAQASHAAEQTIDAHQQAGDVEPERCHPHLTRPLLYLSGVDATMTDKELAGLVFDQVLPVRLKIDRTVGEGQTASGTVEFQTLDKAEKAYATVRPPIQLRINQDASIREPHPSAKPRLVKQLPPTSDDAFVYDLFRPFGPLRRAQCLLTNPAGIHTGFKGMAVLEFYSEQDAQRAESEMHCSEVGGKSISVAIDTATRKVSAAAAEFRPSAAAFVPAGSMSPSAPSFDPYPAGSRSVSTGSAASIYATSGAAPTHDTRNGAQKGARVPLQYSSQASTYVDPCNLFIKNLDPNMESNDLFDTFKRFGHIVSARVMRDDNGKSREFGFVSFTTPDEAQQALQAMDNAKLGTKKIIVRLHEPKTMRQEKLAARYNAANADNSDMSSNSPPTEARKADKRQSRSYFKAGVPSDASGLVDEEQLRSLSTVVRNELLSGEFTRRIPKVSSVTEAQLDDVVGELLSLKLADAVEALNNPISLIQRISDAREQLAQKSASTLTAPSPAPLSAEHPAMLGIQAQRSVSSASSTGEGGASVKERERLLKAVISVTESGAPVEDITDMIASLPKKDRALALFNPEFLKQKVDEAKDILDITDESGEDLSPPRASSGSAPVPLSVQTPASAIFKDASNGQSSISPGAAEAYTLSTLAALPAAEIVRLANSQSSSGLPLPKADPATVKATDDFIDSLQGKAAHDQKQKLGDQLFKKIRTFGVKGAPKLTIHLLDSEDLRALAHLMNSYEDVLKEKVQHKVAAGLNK
UniProt O31597, sequence (whole entry, looked up): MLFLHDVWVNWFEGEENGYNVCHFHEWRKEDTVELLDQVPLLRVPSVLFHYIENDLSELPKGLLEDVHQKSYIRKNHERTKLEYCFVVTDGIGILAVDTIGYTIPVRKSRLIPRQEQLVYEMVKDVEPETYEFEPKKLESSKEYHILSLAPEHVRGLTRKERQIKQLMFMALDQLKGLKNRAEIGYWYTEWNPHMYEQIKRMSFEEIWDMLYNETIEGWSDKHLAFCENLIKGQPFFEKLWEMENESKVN
UniProt Q95XP9, sequence (whole entry, looked up): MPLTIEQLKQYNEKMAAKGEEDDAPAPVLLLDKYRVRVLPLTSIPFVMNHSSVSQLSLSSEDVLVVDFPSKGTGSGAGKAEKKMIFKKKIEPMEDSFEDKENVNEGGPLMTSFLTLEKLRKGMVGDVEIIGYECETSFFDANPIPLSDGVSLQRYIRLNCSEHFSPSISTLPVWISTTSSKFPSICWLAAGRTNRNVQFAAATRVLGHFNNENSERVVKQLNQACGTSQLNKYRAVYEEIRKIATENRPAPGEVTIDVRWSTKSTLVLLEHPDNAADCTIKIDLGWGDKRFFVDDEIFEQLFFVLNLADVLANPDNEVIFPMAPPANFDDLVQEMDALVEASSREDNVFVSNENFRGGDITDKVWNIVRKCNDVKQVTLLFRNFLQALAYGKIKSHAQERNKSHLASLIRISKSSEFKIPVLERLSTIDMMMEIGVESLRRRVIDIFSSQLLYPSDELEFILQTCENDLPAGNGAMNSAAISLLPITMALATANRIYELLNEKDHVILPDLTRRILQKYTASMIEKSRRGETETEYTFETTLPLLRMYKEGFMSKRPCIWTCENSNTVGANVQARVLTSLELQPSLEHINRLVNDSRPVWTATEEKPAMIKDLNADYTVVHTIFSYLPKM
UniProt P50052, sequence (whole entry, looked up): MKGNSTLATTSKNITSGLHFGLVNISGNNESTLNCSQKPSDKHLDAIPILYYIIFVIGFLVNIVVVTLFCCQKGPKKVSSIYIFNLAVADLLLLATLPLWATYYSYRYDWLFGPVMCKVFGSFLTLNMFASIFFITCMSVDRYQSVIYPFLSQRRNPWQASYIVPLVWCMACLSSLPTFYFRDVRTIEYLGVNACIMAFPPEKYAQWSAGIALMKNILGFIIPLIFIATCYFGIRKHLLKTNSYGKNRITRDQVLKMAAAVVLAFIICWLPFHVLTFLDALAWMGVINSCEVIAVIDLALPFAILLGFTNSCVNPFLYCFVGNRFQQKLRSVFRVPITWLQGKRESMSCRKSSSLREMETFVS
UniProt P0AAI5, sequence (whole entry, looked up): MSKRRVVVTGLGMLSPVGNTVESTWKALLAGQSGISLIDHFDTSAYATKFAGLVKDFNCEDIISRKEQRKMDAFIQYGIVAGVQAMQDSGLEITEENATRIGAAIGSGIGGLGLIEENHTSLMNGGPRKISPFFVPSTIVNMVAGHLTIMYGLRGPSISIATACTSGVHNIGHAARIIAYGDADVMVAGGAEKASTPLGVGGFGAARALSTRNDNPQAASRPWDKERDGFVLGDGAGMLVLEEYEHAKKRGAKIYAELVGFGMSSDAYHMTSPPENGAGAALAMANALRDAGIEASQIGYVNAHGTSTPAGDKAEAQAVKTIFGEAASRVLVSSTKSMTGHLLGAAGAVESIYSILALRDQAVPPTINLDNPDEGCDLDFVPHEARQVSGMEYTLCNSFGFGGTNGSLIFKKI

Molecule | target or system | test | test system | conditions | how to read | measurement | value
B1 (acpP) | fabF (Escherichia coli, UniProt P0AAI5) | fluorescence titration |  |  |  | Kd | 0.89 µM
B2 (clpC N domain 1-150) | mdfA (Bacillus subtilis, UniProt O31597) | ITC |  |  |  | Kd | 3.79 µM
B3 (USP7 207-560) | ubiquitin, 15N-labelled (UniProt P0CG48) | NMR titration |  |  |  | Kd | 204 ± 22 µM
KLLMIIHDRREFAKFEKEKMNAKWDTQENPIYKSPVTTVVNPKYEGK (ITGB1 752-798 G778Q/A786P (Homo sapiens, UniProt P05556-1); sequence looked up) | Tln2 312-408 (Mus musculus, UniProt Q71LX4) | NMR titration |  |  |  | Kd | 57 µM
BIN2 (Arabidopsis thaliana, UniProt Q39011) | PCK1 (Arabidopsis thaliana, UniProt Q9T074) | BLI |  | without ATP, Kd from koff/kon |  | Kd | 0.18 µM
SDLACRLLGQSMDESGLPQLTSYDCEVNAPIQGSGSGSGSRNLLQGEELLRALDQVN (HIF-1α CTAD 776-826 (GS)3 insertion (Homo sapiens, UniProt Q16665); sequence looked up) | Crebbp | fluorescence polarisation |  |  |  | Kd | 0.13 µM
B4 (ADRM1 265-388) | UCHL5 M148A/F149A (Homo sapiens) | ITC |  |  |  | Kd | 0.025 µM
DHEYVLTESFLDSGAFPNHDVIDHNKMLNSNYNGNGILNKGGVLGLVKEYYKKSDVGR (ATG9 940-997 (Saccharomyces cerevisiae, UniProt Q12142); sequence looked up) | ATG23 Y16E (UniProt Q06671) | BLI |  |  |  | Kd | 3.34 µM
B5 (spdl-1 C-terminal 362-479) | zwl-1 (Caenorhabditis elegans, UniProt Q95XP9) | MST |  |  |  | Kd | 53.3 ± 16.2 µM
Notch ankyrin domain T50A/E52A/R60A/R107A (Drosophila) | dx (Drosophila melanogaster, UniProt Q23985) | AUC |  |  |  | Kd | 12.7 µM
SDLACRLLGQSMDESGLPQLTSYDCEVNAPIQGSRNLLQGEELLRALDQVN (HIF1A 776-826 (Homo sapiens, UniProt Q16665); sequence looked up) | Crebbp | fluorescence polarisation |  |  |  | Kd | 0.014 µM
ENAH EVH1 domain (Homo sapiens) | CEBPB peptide (Homo sapiens) | BLI |  |  |  | Kd | 57.2 µM
SFSFYK (designed peptide; FITC label) | NHERF2 142-254 (Homo sapiens, UniProt Q15599-1) | fluorescence intensity change, fluorescence titration | peptide |  |  | Kd | > 1000 µM
human G3BP1 | PP6C (human) | co-immunoprecipitation, IP-MS | CYB5R4 knockout cells | concentration not given | reference: CYB5R4 knockout over parental | log2 fold change | -1.27
colistin | Acinetobacter baumannii | broth microdilution | clinical isolate RKI-No_271/16 |  |  | MIC | ≤ 0.5 mg/L
B6 | IL18BP (Homo sapiens, UniProt O95998) | SPR |  |  |  | Kd | 9e-06 µM
FIYWPWADLGVPDCG (macrocyclic peptide; cyclic) | HRAS fragment (Homo sapiens) | SPR | peptide |  |  | Kd | > 10 µM
B7 (human transketolase) | PP6C (human) | co-immunoprecipitation, IP-MS | CYB5R4 knockout cells | concentration not given | reference: CYB5R4 knockout over parental | log2 fold change | -0.6
Cacna1c fragment I1691E (Rattus norvegicus) | CACNA1C IQ motif 1644-1668, fluorescein label (UniProt P15381) | fluorescence polarisation |  |  |  | Kd | 21 ± 5 µM
Trastuzumab IgG1, CSCS double cysteine mutant (Homo sapiens) | FCGR1A (Homo sapiens, UniProt P12314) | SPR |  |  |  | Kd | 0.00092 µM
angiotensin 1-9 fragment | AGTR2 (Homo sapiens, UniProt P50052) | SPR |  |  |  | Kd | 5.95 µM
PVDPDNEAYEM (SNCA residues 117-127 (Homo sapiens); N-acetyl, C-terminal amide) | STIP1 TPR2A (Homo sapiens) | BLI | peptide |  |  | Kd | 87 ± 7.8 µM
GRIN2A fragment S1459E (sequence not shown) | SNX27 fragment (Rattus norvegicus) | ITC |  |  |  | Kd | 25 µM
EYGIQRITC (IL1RAP 152-160 (Homo sapiens); acetylated N-terminus/C-terminal amide) | IL1RL1/IL33 ST2 , IL-33 19-328 | SPR | peptide |  |  | Kd | 57 µM
B8 (Notch1 221-526) | DLL4 27-400 G28S/F107L/I143F/H194Y/L206P/N257P/T271L/F280Y/S301R/Q305P (Homo sapiens, UniProt Q9NR61) | SPR |  |  |  | Kd | 0.025 µM
DEDAADDDDDEFIYPNSY (upa1 944-961 (Ustilago maydis, UniProt A0A0D1E015); sequence looked up) | rrm4 679-792 (Ustilago maydis, UniProt A0A0D1DWZ5) | ITC | peptide |  |  | Kd | 5.7 µM
